Published values of several laboratories.
Each numbered part is a random draw from the data of one study; scales do not carry over between parts. Several values in a cell are separate wells, animals, samples, runs or records.
Sequence of UniProt Q6PHR2 (whole entry, looked up): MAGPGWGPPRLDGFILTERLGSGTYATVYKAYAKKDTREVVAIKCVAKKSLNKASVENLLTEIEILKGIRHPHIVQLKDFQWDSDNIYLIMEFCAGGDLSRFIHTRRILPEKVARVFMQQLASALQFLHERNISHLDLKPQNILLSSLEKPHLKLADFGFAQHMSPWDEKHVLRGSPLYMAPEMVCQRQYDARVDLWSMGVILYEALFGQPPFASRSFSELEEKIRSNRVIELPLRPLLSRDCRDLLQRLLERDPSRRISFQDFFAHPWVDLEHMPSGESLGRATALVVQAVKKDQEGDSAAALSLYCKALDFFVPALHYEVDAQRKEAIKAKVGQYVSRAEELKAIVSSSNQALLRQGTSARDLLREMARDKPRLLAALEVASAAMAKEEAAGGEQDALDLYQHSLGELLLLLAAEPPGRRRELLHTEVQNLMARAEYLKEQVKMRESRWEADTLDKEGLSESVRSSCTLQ
Sequence of UniProt Q9Y5S2 (whole entry, looked up): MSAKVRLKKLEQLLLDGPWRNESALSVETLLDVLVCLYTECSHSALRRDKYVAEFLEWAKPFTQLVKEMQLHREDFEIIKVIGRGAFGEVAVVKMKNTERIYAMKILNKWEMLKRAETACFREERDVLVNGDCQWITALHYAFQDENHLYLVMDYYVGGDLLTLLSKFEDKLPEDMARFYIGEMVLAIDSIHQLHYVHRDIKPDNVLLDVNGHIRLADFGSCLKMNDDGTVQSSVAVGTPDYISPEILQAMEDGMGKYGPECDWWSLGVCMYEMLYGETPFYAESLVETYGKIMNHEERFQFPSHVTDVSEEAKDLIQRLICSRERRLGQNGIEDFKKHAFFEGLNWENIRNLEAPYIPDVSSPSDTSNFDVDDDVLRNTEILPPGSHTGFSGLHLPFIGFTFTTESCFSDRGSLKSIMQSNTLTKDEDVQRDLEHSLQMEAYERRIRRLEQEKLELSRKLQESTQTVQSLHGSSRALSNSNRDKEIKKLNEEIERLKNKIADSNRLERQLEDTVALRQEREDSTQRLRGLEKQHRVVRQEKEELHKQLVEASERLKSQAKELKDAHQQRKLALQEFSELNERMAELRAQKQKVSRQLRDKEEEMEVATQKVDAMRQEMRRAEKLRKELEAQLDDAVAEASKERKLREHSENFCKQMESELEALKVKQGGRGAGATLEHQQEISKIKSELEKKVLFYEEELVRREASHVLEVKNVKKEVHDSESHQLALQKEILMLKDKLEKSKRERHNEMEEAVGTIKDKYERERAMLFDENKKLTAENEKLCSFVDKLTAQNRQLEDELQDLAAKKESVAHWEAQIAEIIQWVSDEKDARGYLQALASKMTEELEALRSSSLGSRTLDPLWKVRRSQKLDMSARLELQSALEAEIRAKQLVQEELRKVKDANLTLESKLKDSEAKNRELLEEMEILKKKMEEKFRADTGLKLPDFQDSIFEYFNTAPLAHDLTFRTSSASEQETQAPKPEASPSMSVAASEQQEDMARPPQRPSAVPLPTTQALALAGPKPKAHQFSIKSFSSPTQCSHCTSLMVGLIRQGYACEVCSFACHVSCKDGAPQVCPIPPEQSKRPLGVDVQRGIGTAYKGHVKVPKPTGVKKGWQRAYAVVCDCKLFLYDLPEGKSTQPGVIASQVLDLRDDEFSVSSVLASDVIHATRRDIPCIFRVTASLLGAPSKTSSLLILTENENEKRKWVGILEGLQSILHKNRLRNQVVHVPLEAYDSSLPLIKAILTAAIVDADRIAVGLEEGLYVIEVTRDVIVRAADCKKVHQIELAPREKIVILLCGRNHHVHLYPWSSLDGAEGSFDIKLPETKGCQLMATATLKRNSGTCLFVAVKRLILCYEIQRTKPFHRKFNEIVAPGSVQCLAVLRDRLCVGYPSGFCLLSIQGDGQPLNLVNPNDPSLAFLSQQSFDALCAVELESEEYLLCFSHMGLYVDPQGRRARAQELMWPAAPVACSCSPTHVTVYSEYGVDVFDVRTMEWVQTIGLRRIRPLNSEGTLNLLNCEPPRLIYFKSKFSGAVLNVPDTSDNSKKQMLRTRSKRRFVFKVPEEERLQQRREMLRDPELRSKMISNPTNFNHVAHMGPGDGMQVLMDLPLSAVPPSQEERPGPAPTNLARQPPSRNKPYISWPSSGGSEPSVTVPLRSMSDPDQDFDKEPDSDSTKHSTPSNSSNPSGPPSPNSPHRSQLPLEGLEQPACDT
Sequence of UniProt P28482 (whole entry, looked up): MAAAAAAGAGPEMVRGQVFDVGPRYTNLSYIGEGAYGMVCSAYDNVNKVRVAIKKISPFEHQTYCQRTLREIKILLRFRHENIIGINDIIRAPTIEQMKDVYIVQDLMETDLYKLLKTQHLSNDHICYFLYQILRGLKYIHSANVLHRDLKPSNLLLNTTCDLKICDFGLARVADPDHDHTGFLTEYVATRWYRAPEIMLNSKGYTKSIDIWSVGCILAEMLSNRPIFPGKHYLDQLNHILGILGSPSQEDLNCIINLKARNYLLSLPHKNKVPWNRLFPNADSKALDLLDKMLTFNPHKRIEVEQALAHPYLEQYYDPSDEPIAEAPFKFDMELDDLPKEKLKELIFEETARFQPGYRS
Sequence of UniProt P35968 (whole entry, looked up): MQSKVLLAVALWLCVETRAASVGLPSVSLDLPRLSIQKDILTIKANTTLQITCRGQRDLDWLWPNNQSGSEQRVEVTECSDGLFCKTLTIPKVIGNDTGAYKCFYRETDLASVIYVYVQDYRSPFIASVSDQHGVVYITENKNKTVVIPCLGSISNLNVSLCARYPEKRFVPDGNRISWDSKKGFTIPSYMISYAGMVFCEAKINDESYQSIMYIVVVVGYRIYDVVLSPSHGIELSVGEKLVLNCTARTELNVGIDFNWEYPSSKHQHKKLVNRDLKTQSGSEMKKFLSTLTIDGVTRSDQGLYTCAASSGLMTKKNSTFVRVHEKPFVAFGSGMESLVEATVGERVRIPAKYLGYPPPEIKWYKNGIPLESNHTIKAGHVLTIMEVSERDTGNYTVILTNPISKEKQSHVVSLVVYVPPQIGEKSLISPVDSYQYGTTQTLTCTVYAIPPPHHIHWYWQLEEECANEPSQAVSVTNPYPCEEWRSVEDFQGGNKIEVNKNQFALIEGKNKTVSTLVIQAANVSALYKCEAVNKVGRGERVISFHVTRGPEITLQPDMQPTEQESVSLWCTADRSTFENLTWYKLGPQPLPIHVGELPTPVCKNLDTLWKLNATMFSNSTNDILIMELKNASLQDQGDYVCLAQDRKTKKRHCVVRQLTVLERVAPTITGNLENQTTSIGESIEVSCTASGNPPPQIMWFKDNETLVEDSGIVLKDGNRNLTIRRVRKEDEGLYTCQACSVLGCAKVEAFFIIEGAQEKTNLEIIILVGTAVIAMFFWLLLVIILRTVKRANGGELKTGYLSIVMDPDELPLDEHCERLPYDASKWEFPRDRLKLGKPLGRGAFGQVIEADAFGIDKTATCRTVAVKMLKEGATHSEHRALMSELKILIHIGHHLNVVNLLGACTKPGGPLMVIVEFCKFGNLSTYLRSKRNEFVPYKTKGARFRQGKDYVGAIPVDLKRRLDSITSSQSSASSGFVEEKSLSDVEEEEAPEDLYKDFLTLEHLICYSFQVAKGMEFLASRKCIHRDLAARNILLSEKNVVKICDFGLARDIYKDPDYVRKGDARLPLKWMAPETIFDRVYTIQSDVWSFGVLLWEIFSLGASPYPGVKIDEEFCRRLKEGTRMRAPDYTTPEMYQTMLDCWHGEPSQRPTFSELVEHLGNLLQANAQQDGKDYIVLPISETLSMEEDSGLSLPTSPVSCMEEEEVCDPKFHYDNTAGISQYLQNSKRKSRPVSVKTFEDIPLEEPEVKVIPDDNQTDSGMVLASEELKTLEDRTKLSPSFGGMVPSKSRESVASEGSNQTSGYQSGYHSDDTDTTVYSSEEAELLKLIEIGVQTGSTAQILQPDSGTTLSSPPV
Sequence of UniProt P53350 (whole entry, looked up): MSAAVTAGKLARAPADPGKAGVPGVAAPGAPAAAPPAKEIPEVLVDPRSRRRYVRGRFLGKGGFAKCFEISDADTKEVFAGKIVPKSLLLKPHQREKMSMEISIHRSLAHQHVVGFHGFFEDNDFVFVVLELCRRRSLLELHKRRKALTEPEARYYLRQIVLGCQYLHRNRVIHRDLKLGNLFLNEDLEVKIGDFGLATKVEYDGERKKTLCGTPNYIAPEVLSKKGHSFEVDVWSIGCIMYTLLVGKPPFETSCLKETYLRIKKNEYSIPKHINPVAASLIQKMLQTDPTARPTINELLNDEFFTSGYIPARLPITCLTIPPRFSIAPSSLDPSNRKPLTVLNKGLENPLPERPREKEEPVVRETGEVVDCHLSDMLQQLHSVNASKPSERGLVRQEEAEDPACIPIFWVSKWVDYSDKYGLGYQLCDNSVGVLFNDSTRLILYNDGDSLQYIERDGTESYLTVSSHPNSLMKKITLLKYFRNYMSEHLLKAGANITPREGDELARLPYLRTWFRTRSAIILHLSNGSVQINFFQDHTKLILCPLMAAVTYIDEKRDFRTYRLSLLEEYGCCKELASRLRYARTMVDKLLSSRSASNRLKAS

Set 1 — cell line: mouse MPNST tumor cells; method: high-content nuclear imaging; measured: cell number; tested at: 10 µM; time: 12 h; setting: mean of 2 replicates; reference: plate mean; direction: higher = more cells; endpoint: nuclei count
SMILES = CCC(=O)NC1CCc2cccc(OC)c2C1 (centres unmarked); result = 0.0599 z-score
SMILES = COc1ccc(C2CC(c3ccccc3)=NN2c2ccc(S(N)(=O)=O)cc2)cc1 (centres unmarked); result = 0.903 z-score
SMILES = CCN(CCCc1ccccc1)CCCc1ccccc1; result = 2.81 z-score
SMILES = CC(C(=O)O)c1ccc(N2Cc3ccccc3C2=O)cc1 (centres unmarked); result = -0.438 z-score
SMILES = CC[C@H](C)C(=O)O[C@H]1C[C@@H](C)C=C2C=C[C@H](C)[C@H](CC[C@@H]3C[C@@H](O)CC(=O)O3)[C@H]21; result = -4.72 z-score and -4.42 z-score
SMILES = CCc1cc(-c2n[nH]c(C)c2-c2ccc3c(c2)OCCO3)c(O)cc1O; result = 3.44 z-score
SMILES = O=C(COc1cccc2c(=O)[nH]ccc12)c1ccccc1; result = 3.07 z-score
SMILES = Nc1nnc(Sc2ncc([N+](=O)[O-])s2)s1; result = -0.808 z-score
SMILES = CCC(CC)(NC(=O)C(C)C)C(=O)N[C@@H](CCCN=C(N)N)C(=O)NC1(C(=O)NC(c2ccc(F)cc2)c2ccc(F)cc2)CCCC1; result = -1.3 z-score

Set 2 — effect on: enzyme activity; action: inhibitor; tested at: 10 µM; endpoint: inhibition
Target: Calcium/calmodulin-dependent protein kinase type II subunit alpha (CAMK2A, Homo sapiens, UniProt Q9UQM7)
Sequence of UniProt Q9UQM7 (whole entry, looked up): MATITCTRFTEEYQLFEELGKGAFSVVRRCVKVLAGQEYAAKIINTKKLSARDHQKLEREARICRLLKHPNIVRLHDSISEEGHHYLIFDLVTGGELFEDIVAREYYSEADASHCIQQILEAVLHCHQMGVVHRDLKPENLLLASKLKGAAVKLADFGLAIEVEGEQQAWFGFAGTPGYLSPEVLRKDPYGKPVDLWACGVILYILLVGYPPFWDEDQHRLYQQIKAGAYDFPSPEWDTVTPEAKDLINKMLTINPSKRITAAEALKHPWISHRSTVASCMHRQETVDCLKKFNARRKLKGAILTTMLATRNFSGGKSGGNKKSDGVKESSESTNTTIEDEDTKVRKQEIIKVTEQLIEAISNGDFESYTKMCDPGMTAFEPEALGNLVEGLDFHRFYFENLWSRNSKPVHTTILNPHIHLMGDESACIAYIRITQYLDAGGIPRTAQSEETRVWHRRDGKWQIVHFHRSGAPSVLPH
Structure (SMILES) = CC(O)CN (centres unmarked); result = 35%
Structure (SMILES) = Nc1nc(O)c2ncn(COC(CO)CO)c2n1; result = -6%
Structure (SMILES) = Cc1cn([C@H]2C=C[C@@H](CO)O2)c(=O)[nH]c1=O; result = -8%
Structure (SMILES) = CC(=O)c1ccc(S(=O)(=O)NC(=O)NC2CCCCC2)cc1; result = 9%
Structure (SMILES) = NS(=O)(=O)Cc1noc2ccccc12; result = -5%
Structure (SMILES) = O=c1[nH]c(=O)n([C@H]2C[C@H](O)[C@@H](CO)O2)cc1C(F)(F)F; result = -7%
Structure (SMILES) = CSCCC(O)C(=O)O (centres unmarked); result = -50%

Set 3 — effect on: enzyme activity; action: inhibitor; tested at: 0.5 µM; reference: control; endpoint: remaining activity
Compound: Nc1cccc(-c2cc3c(Oc4cccc(O)c4)ncnc3[nH]2)c1
target = Serine/threonine-protein kinase MRCK beta (CDC42BPB, Homo sapiens, UniProt Q9Y5S2); result = 93.5%
target = Calcium/calmodulin-dependent protein kinase type 1B (PNCK, Homo sapiens, UniProt Q6P2M8); result = 98.2%
target = Ribosomal protein S6 kinase alpha-4 (RPS6KA4, Homo sapiens, UniProt O75676); result = 103%
target = RAC-beta serine/threonine-protein kinase (AKT2, Homo sapiens, UniProt P31751); result = 109%
target = Hepatocyte growth factor receptor (MET, Homo sapiens, UniProt P08581); result = 110%
target = Mitogen-activated protein kinase 1 (MAPK1, Homo sapiens, UniProt P28482); result = 114%
target = MAP/microtubule affinity-regulating kinase 4 (MARK4, Homo sapiens, UniProt Q96L34); result = 68.8%
target = Cyclin-dependent kinase 1, with cyclin A (CDK1, Homo sapiens, UniProt P06493); result = 99.3%
target = Vascular endothelial growth factor receptor 2 (KDR, Homo sapiens, UniProt P35968); result = 6.7%
target = Dual specificity protein kinase CLK3 (CLK3, Homo sapiens, UniProt P49761); result = 74%
target = Mitogen-activated protein kinase 14 (MAPK14, Homo sapiens, UniProt Q16539); result = 98.1%
target = G protein-coupled receptor kinase 4 (GRK4, Homo sapiens, UniProt P32298); result = 94.7%
target = Dual specificity mitogen-activated protein kinase kinase 1 (MAP2K1, Homo sapiens, UniProt Q02750); result = 76.3%
target = Tyrosine-protein kinase TXK (TXK, Homo sapiens, UniProt P42681); result = 24.5%

Set 4 — effect on: cell-free assay; method: competition with immobilised ligand; tested at: 1 µM; endpoint: remaining binding
SMILES: CCCCN(CCCC)C(=O)CN1C[C@@H](c2cc(OC)c3c(c2)OCO3)[C@H](C(=O)O)[C@H]1CC(C)(C)CCC
target = Epidermal growth factor receptor (EGFR, Homo sapiens, UniProt P00533, del746-750); result = 70.3%
target = Inhibitor of nuclear factor kappa-B kinase subunit alpha (CHUK, Homo sapiens, UniProt O15111); result = 100%
target = Ribosomal protein S6 kinase beta-1 (RPS6KB1, Homo sapiens, UniProt P23443); result = 99%
target = Serine/threonine-protein kinase PLK1 (PLK1, Homo sapiens, UniProt P53350); result = 100%
target = Serine/threonine-protein kinase ULK3 (ULK3, Homo sapiens, UniProt Q6PHR2); result = 90.7%
target = Tyrosine-protein kinase ABL1, non-phosphorylated (ABL1, Homo sapiens, UniProt P00519, T315I); result = 100%
target = Protein-tyrosine kinase 6 (PTK6, Homo sapiens, UniProt Q13882); result = 100%
target = Receptor-type tyrosine-protein kinase FLT3 (FLT3, Homo sapiens, UniProt P36888, D835V); result = 78.8%

Repeated from above (set 3):
target = Calcium/calmodulin-dependent protein kinase type 1B (PNCK, Homo sapiens, UniProt Q6P2M8); result = 98.2%
target = Dual specificity protein kinase CLK3 (CLK3, Homo sapiens, UniProt P49761); result = 74%
